# Results gathered from unrelated publications.
# Protocols differ between the studies behind these lines.
# Organism: Pseudomonas aeruginosa
SMILES,test,test system,conditions,MIC
C#CCO/N=C(\C(=O)N[C@@H]1C(=O)N(S(=O)(=O)O)[C@H]1C)c1csc(N)n1,"microbial growth, agar dilution",PAO1,,64 mg/L
CC(C)C[C@@H]1NC(=O)[C@@H](CC(C)C)NC(=O)[C@H](CCN)NC(=O)[C@@H](NC(=O)[C@H](CCN)NC(=O)[C@@H](NC(=O)CN=[N+]=[N-])[C@@H](C)O)CCNC(=O)[C@H]([C@@H](C)O)NC(=O)[C@H](CCN)NC(=O)[C@H](CCN)NC1=O,broth microdilution,"ATCC 10145, cation-adjusted Mueller-Hinton broth","18 to 20 h, 37 °C, 0.002% polysorbate 80",8 mg/L
CCCCCCCCn1cc[n+](CCCCCCOc2cc(OCCCCCC[n+]3ccn(CCCCCCCC)c3)cc(OCCCCCC[n+]3ccn(CCCCCCCC)c3)c2)c1.[Br-].[Br-].[Br-],,PAO1,,2 µM
CC[C@H]1OC(=O)[C@H](C)[C@@H](OC(=O)Cc2c(F)cccc2F)[C@H](C)[C@@H](O[C@@H]2O[C@H](C)C[C@H](N(C)C)[C@H]2O)[C@](C)(OC)C[C@@H](C)C(=O)[C@H](C)[C@@H](O)[C@]1(C)O,microbial growth,ATCC27853,,> 32 mg/L
COC(=O)CNC(=O)c1ccc(NC(=O)c2[nH]c(C)c(Cl)c2Cl)c(N2CCN(C(=O)OC(C)(C)C)CC2)c1,"microbial growth, broth dilution",ATCC27853,,> 32 mg/L
CC1(C)[C@H](NC(=O)/C(=N\OCCN)c2csc(N)n2)C(=O)N1OS(=O)(=O)O,agar dilution,ATCC 27853,,> 64 mg/L
CC[C@H]1OC(=O)[C@H](C)[C@@H](OC(=O)Cc2ccc3c(c2)OCO3)[C@H](C)[C@@H](O[C@@H]2O[C@H](C)C[C@H](N(C)C)[C@H]2O)[C@](C)(OC)C[C@@H](C)C(=O)[C@H](C)[C@@H](O)[C@]1(C)O,,DSM 50071,added: colistin sulfate at 0.1 x MIC,> 64 µM
COc1c(NC(=O)c2ccc(NC(=O)c3ccc(NC(=O)[C@H](CC#N)NC(=O)c4ccc(NC(=O)/C(C)=C/c5ccc(O)cc5)cc4)cc3)c(OC)c2O)ccc(C(=O)O)c1O,microbial growth,PA14,,0.25 mg/L
CC[C@H](C)[C@H](NC(=O)[C@@H](CCCNC(=N)N)NC(=O)[C@H](CCCNC(=N)N)NC(=O)[C@@H]1CCCN1C(=O)[C@@H]1CCCN1C(=O)[C@H](CCCNC(=N)N)NC(=O)[C@@H]1CCCN1C(=O)[C@H](CCCNC(=N)N)NC(=O)[C@@H]1CCCN1C(=O)[C@H](CCCNC(=N)N)NC(=O)[C@H](Cc1ccc(O)cc1)NC(=O)[C@@H]1CCCN1C(=O)[C@@H]1CCCN1C(=O)[C@H](CCCCN)NC(=O)[C@H](CC(=O)O)NC(=O)[C@@H](N)C(C)C)C(=O)N[C@@H](Cc1ccc(O)cc1)C(=O)N[C@@H](CC(N)=O)C(=O)N[C@H](CCCNC(=N)N)C(N)=O,broth microdilution,DSM 1117,"18 h, 37 °C, 25% MHB2",32 mg/L
CC[C@H]1OC(=O)[C@H](C)[C@@H](OC(=O)Cc2c(F)cc([N+](=O)[O-])cc2F)[C@H](C)[C@@H](O[C@@H]2O[C@H](C)C[C@H](N(C)C)[C@H]2O)[C@](C)(OC)C[C@@H](C)C(=O)[C@H](C)[C@@H](O)[C@]1(C)O,,DSM 50071,compound alone,> 128 µM
CCCCCCn1cc[n+](CCCCCCCCCCOc2cc(OCCCCCCCCCC[n+]3ccn(CCCCCC)c3)cc(OCCCCCCCCCC[n+]3ccn(CCCCCC)c3)c2)c1.[Br-].[Br-].[Br-],,PAO1,,16 µM
COc1ccc2ccc(O)c(/C=N/[C@H]3CCCC[C@H]3/N=C/c3ccc(F)cc3O)c2c1,"microbial growth, broth dilution",,clinical isolate,> 40 µM
CC1(C)[C@H](NC(=O)/C(=N\OC2(C(=O)O)CC2)c2nsc(N)n2)C(=O)N1OS(=O)(=O)O,agar dilution,PAO1,,8 mg/L
CC(C)C[C@@H]1NC(=O)[C@@H](CC(C)C)NC(=O)[C@H](CCN)NC(=O)[C@@H](NC(=O)[C@H](CCN)NC(=O)[C@@H](N)[C@@H](C)O)CCNC(=O)[C@H]([C@@H](C)O)NC(=O)[C@H](CCN)NC(=O)[C@H](CCN)NC1=O,broth microdilution,"ATCC 10145, cation-adjusted Mueller-Hinton broth","18 to 20 h, 37 °C, 0.002% polysorbate 80",> 128 mg/L
COc1c(NC(=O)c2ccc(NC(=O)c3ccc(NC(=O)[C@H](CC#N)NC(=O)c4ccc(NC(=O)/C(C)=C/c5ccc(O)cc5)cc4)cc3)c(OC)c2O)ccc(C(=O)O)c1O,broth microdilution,ciprofloxacin-sensitive,,1 mg/L
NC[C@H]1O[C@H](O[C@H]2[C@H](O)[C@@H](O[C@H]3O[C@H](CO)[C@@H](O)[C@H](N)[C@H]3O)[C@H](N)C[C@@H]2N)[C@H](N)C[C@@H]1O,broth microdilution,pyocyanin non-producing,,0.125 mg/L
COc1ccc(/C=N/[C@@H]2CCCC[C@@H]2/N=C/c2c(O)ccc3ccc(OC)cc23)c(O)c1,"microbial growth, broth dilution",,clinical isolate,> 40 µM
COc1cc(C(=O)O)ccc1NC(=O)c1ccc(NC(=O)c2ccc(NC(=O)[C@H](Cc3c[nH]nn3)NC(=O)c3ccc(NC(=O)/C(C)=C/c4ccc(O)cc4)cc3)cc2)cc1,broth microdilution,ciprofloxacin-sensitive,,32 mg/L
CCCCCCCC(=O)Oc1c(C)c(OC)c2c(c1C)OC(=O)[C@@H](CCCCCC)[C@]2(O)/C=C/c1ccccc1 (racemic),"microbial growth, broth dilution",ATCC27853,,5000 mg/L
CC[C@H]1OC(=O)[C@H](C)[C@@H](O[C@H]2C[C@@](C)(OC)[C@@H](O)[C@H](C)O2)[C@H](C)[C@@H](O[C@@H]2O[C@H](C)C[C@H](N(C)C)[C@H]2O)[C@](C)(O)C[C@@H](C)CN(C)[C@H](C)[C@@H](O)[C@]1(C)O,broth microdilution,pyocyanin non-producing,,8 mg/L
C/C(=C\c1ccc(O)cc1)C(=O)Nc1ccc(C(=O)N[C@@H](Cc2c[nH]nn2)C(=O)Nc2ccc(C(=O)Nc3ccc(C(=O)Nc4ccc(C(=O)O)c(O)c4)c(O)c3)cc2)cc1,broth microdilution,ciprofloxacin-resistant,,32 mg/L
CC[C@H]1OC(=O)[C@H](C)[C@@H](OC(=O)Cc2ccc(C(F)(F)F)cc2)[C@H](C)[C@@H](O[C@@H]2O[C@H](C)C[C@H](N(C)C)[C@H]2O)[C@](C)(OC)C[C@@H](C)C(=O)[C@H](C)[C@@H](O)[C@]1(C)O,,"PAO397, five efflux pumps deleted",,> 32 mg/L
C/C(=C\c1ccc(O)cc1)C(=O)Nc1ccc(C(=O)N[C@@H](Cc2c[nH]nn2)C(=O)Nc2ccc(C(=O)Nc3ccc(C(=O)Nc4ccc(C(=O)O)cc4)c(O)c3)cc2)cc1,broth microdilution,ciprofloxacin-resistant,,32 mg/L
CCCCCC[N+](C)(C)CCCCOc1cc(OCCCC[N+](C)(C)CCCCCC)cc(OCCCC[N+](C)(C)CCCCCC)c1.[Br-].[Br-].[Br-],,PAO1,,> 250 µM
